Earlier results, collected from citations in different studies.
Lines come from different studies, so protocols differ.
Chain of UniProt Q9NRH2 (whole entry, looked up): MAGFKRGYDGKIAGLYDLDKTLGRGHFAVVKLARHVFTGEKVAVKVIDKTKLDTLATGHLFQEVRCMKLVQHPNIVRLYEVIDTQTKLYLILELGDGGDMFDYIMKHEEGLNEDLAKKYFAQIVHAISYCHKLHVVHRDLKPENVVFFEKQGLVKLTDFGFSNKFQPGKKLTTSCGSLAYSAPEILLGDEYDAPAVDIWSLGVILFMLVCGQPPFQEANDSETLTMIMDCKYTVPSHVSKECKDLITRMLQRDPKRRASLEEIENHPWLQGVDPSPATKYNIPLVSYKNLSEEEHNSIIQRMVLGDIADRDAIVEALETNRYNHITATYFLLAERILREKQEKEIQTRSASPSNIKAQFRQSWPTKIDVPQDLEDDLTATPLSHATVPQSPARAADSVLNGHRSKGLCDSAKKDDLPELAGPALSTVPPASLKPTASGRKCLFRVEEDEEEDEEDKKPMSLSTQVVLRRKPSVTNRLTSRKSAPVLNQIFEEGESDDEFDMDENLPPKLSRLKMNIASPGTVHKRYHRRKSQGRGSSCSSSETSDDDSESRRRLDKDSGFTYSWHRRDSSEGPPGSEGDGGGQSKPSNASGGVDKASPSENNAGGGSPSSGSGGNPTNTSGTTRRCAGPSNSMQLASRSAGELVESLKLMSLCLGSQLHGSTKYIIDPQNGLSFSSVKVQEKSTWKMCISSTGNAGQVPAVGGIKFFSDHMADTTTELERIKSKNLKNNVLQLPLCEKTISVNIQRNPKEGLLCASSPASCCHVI

SMILES	target or system	test	test system	setting	how to read	measurement	result
Cc1cccc(Nc2cc(Cl)nc(SCC(=O)O)n2)c1C	human PPARalpha T279M	agonist		concentration not given	reference: wild type	agonist activity	increased
CCCCC(CC)C(=O)O (centres unmarked)	HDAC	enzyme activity, inhibitor		day 10, unbound medium concentration		EC10	119 µM
O=C(O)[C@H]1OC(O)[C@H](O)[C@@H](O)[C@@H]1O (mixture of isomers)	anion exchanger, human	substrate	neutrophils			Km	> 95000 µM
CCNS(=O)(=O)c1ccc(OC)cc1C1(O)CCN(Cc2cccc(Oc3ccccc3OC)c2)CC1	human CCR8 W194A mutant (TM5)	IP accumulation, agonist				EC50	0.007 µM
CNC(C)C1CCC(N)C(OC2C(N)CC(N)C(OC3OCC(C)(O)C(NC)C3O)C2O)O1 (centres unmarked)	Klebsiella pneumoniae		clinical isolate RKI-No_320/16			MIC	≤ 0.5 µg/mL
O=C(c1cc(-c2cccs2)[nH]n1)N1CCN(S(=O)(=O)c2ccc(Cl)s2)CC1	Plasmodium falciparum	whole cell extended time	3D7	72 h		IC50	0.87 µM
CCC(CC)C(=O)O	histone deacetylase	enzyme activity, inhibitor	mouse embryonic stem cells	unbound medium concentration		EC10	931 µM
CCCCCCCCCCCCC/C=C/[C@@H](O)[C@H](CO)NC(=O)CCCCCNc1ccc([N+](=O)[O-])c2nonc12	inositol phosphorylceramide synthase, membrane-bound			together with: ceramide substrate		Km	3 µM
CO[C@H]1/C=C/O[C@@]2(C)Oc3c(C)c(O)c4c(O)c(c(/C=N/N5CCN(C)CC5)c(O)c4c3C2=O)NC(=O)/C(C)=C\C=C\[C@H](C)[C@H](O)[C@@H](C)[C@@H](O)[C@@H](C)[C@H](OC(C)=O)[C@@H]1C	P-glycoprotein			optimised model value		kcat	0.0102 s⁻¹
Clc1ccc(C(c2c[nH]c3ccccc23)c2c[nH]c3ccccc23)cc1	NR4A1 (Nur77)	inverse agonist or antagonist				active concentration	20 µM
COc1ccc(F)cc1C(=O)NCc1ccc(-c2nn([C@@H](C)C(F)(F)F)c(N)c2C(N)=O)cc1	BTK human	target occupancy	human patients	200 mg daily, steady-state trough		inhibition	96%
COc1ccccc1Oc1cccc(CN2CCC(NC(=O)C3CC(=O)Nc4ccccc43)CC2)c1 (centres unmarked)	human CCR8 Y113A mutant (TM3)	IP accumulation, agonist				EC50	> 10 µM
CCCC(C)C(=O)O (centres unmarked)	HDAC	enzyme activity, inhibitor		day 4, unbound medium concentration		EC10	7080 µM
CC(C)(C)n1nc(Cc2cccc3ccccc23)c2c(N)ncnc21	CSNK1E	kinase activity, inhibitor		0.5 µM		inhibition	98%
CNC(=O)c1c(C)oc2cc(Oc3ncnc4cc(OC)c(OC)cc34)ccc12	VEGFR-2 mouse	VEGFR-2 phosphorylation	mouse	oral, 2.5 mg/kg single dose		duration of inhibition	> 8 h
Cc1ccc(C)c(OCCCC(C)(C)C(=O)O)c1	UGT2B7	O-glucuronidation, substrate				Vmax	510 pmol/min/mg protein
CCCC(CCC)C(=O)O	HDAC	enzyme activity, inhibitor		day 4, unbound medium concentration		EC10	34 µM
C[C@@H](O)[C@H](NC(=O)c1ccc(C#Cc2ccc(CN3CCOCC3)cc2)cc1)C(=O)NO	Aquifex aeolicus LpxC					residence time	> 24 h
COc1ccccc1Oc1cccc(CN2CCC3(CC2)C(=O)NCN3CCc2ccccc2)c1	human CCR8 S289A mutant (TM7)	IP accumulation, agonist				EC50	0.016 µM
CC(C)Oc1ccc(-c2c[nH]cc2CN(C)CCN)cc1	PRMT8	enzyme activity, inhibitor			reference: PRMT1 IC50 over PRMT8 IC50	selectivity ratio	6 fold
COc1ccc(NC(=O)[C@@H]2C[C@H](C)CC[C@H]2C(C)C)cc1	TRPM8 human					EC50	0.192 µM
C=CCCC(=O)O	HDAC	enzyme activity, inhibitor		day 4, unbound medium concentration		EC10	935 µM

SMILES	target or system	test	test system	setting	how to read	measurement	result
Cc1[nH]c(C)c(-c2ccc(OCc3ccc(OC(F)(F)F)cc3)nc2)c(=O)c1Br	Plasmodium falciparum	whole cell extended time	3D7	72 h		IC50	0.14 µM
CC1(C)S[C@@H]2[C@H](NC(=O)[C@H](N)c3ccccc3)C(=O)N2[C@H]1C(=O)O	Klebsiella pneumoniae		clinical isolate RKI-No_138/16			MIC	> 16 µg/mL
CC(C)[C@H](CO)Nc1nc(Nc2cc(N)cc(Cl)c2)c2ncn(C(C)C)c2n1	CSNK1E	kinase activity, inhibitor		0.5 µM		inhibition	17%
Nc1cc(C(F)(F)F)c(-c2nc(N3CCOCC3)nc(N3CCOCC3)n2)cn1	SNRK (Homo sapiens, UniProt Q9NRH2)	enzyme activity		10 µM	reference: untreated	remaining activity	100%
Cc1cn([C@H]2C[C@H](O)[C@@H](CO)O2)c(=O)nc1N	cytidine deaminase (human)	substrate		concentration not given, 37 °C		Vmax	40.8 U/mg
O=S(=O)(O)O	band 3 anion exchanger, human	anion transport	human red blood cells	pHo 5.5 and 9.0		half-saturation constant	4 to 5 mM
Nc1nc(Nc2ccc(S(N)(=O)=O)cc2)n(C(=S)Nc2c(F)cccc2F)n1	CSNK1G1	kinase activity, inhibitor		0.5 µM		inhibition	83%
C[C@H]1COCCN1c1nc(-c2cnc(N)cc2C(F)F)nc(N2CCOCC2)n1	A498					GI50	0.128 µM
O=C1NC(=O)c2c1c1c3ccccc3[nH]c1n1cncc21	CSNK1D	kinase activity, inhibitor		0.5 µM		inhibition	83%
CCCCCC(CCC)C(=O)O (centres unmarked)	HDAC	enzyme activity, inhibitor		day 4, unbound medium concentration		EC10	17 µM
COc1cccc(-c2cc(=O)c3ccccc3o2)c1N	CSNK1G1	kinase activity, inhibitor		0.5 µM		inhibition	17%
CNc1ccc(-c2nc3ccc(O)cc3s2)cc1	amyloid fibrils				reference: over thioflavin T	affinity	~300 fold
CC(C)n1cnc2c(Nc3cccc(Cl)c3)nc(NCCO)nc21	CSNK1G1	kinase activity, inhibitor		0.5 µM		inhibition	84%
Nc1ccn([C@H]2C[C@H](O)[C@@H](CO)O2)c(=O)n1	cytidine deaminase (human)	substrate		concentration not given, 37 °C		Vmax	45.5 U/mg
Oc1c2ccccc2c2c3c(cccc13)N=N2	CSNK1D	kinase activity, inhibitor		0.5 µM		inhibition	87%
COc1ccccc1Oc1cccc(CN2CCC(O)(c3ccccc3C(=O)O)CC2)c1	human CCR8 F112A mutant (TM3)	IP accumulation, agonist				EC50	0.051 µM
O=C(c1ccc(Cl)cc1)N(Cc1ccccc1)C1CCCCC1	RAGE		RAGE-transfected cells	concentration not given		binding	binds
O=C(Nc1nc2ccccc2[nH]1)c1ccccc1	amyloid precursor protein			2 µM, PubChem AID 1276		response	214%
CCN1CCN(c2cc(N3CCN(CC)CC3)nc(NCCNc3ccnc4cc(Cl)ccc34)n2)CC1	NR4A1 (Nur77)	cellular		concentration not given		activity	inactive
Cc1cc(NC(=O)c2cccc(NC(=O)/C=C/CN(C)C)c2)ccc1Nc1nccc(-c2cccnc2)n1	PDGFR			1 µM	reference: control	remaining activity	5%
C[S+]([O-])c1ccc(-c2nc(-c3ccc(F)cc3)c(-c3ccncc3)[nH]2)cc1 (centres unmarked)	CSNK1G1	kinase activity, inhibitor		0.5 µM		inhibition	4%
COc1ccccc1Oc1cccc(CN2CCC(NC(=O)C(CCN3CCCC3)c3ccccc3)CC2)c1 (centres unmarked)	human CCR8 Y113A mutant (TM3)	IP accumulation, agonist				EC50	> 10 µM

Excerpt of the above:
SMILES	target or system	test	test system	setting	how to read	measurement	result
COc1ccc(NC(=O)[C@@H]2C[C@H](C)CC[C@H]2C(C)C)cc1	TRPM8 human					EC50	0.192 µM
CCN1CCN(c2cc(N3CCN(CC)CC3)nc(NCCNc3ccnc4cc(Cl)ccc34)n2)CC1	NR4A1 (Nur77)	cellular		concentration not given		activity	inactive
CNc1ccc(-c2nc3ccc(O)cc3s2)cc1	amyloid fibrils				reference: over thioflavin T	affinity	~300 fold
CC(C)n1cnc2c(Nc3cccc(Cl)c3)nc(NCCO)nc21	CSNK1G1	kinase activity, inhibitor		0.5 µM		inhibition	84%
